Assay results of several laboratories.
Lines come from different studies, so protocols differ. ± gives the spread as reported.

Clc1ccc(C=[N+]2N=C(Nc3ccccc3)[S][Pt-]2([Cl])[Cl])s1 — IC50 (CEM human lymphocytes; cell proliferation): 36 µM
Cn1ccc(-c2cc(Cl)c(Cl)c3[nH]c4c(c23)CN(C(=O)CO)CC4)n1 — IC50 (cGAS I309T mouse BMDM; CXCL10 secretion, inhibitor; added: 100 bp dsDNA): 0.82 µM
C=C[CH2][Pd-]([Cl])[Cl].CC(C)c1cccc(C(C)C)c1-n1c[n+](-c2c(C(C)C)cccc2C(C)C)c2c1-c1cccc3cccc-2c13 — IC50 (C13 cisplatin-resistant; cell viability, MTT; 72 h): 3.5 ± 0.7 µM
Cc1ccc(NC(=O)c2c(C)oc3ccc(O)c(CN4CCCCCC4)c23)cc1 — IC50 (KMS-27; cell growth or viability, MTS; 72 h): 9.6 µM
CC(=O)c1cnc(N)nc1N1CC[C@H]1c1nn2ccc(Cl)c2c(=O)n1-c1ccccc1 — IC50 (human CD4 T cells; Th1 differentiation, item: IFN-gamma): 0.048 µM
NS(=O)(=O)c1ccc(NC(=O)NN[C@@H]2O[C@H](CO)[C@@H](O)[C@H](O)[C@H]2O)cc1 — IC50 (HCEC; cell growth or viability, MTT; 96 h): > 100 µM
C=C(C)C(=O)Nc1ccc(-c2c(C#Cc3cc(OC)cc(OC)c3)c3c(N)ncnc3n2C)cc1 — IC50 (SNU-16; cell growth or viability, ATP luminescence; 96 h): 0.088 µM
CN1CCCNC(=O)CCC(=O)NCCCN(C)CCCNc2cccc3c2C(=O)c2cccc(c2C3=O)NCCC1 — IC50 (SAS; cell growth or viability, CCK-8; 48 h): > 20 µM
Cc1cc(C#N)cc(C)c1Oc1cc(Nc2ccc(C#N)cn2)nc2cnccc12 — IC50 (MOLT-3; 48 h): > 127 µM
CCOC(=O)c1nn(-c2ccccc2)c2nc3nc(-c4ccccc4)cc(-c4ccc5ccccc5n4)c3c(=O)n12 — IC50 (RPE-1; cell growth or viability, MTT; 48 h): 25.5 µM
CN(C)C1=[S+][Au-2]2([S]1)[c]1ccccc1-c1cccc[n+]12.F[P-](F)(F)(F)(F)F (centres unmarked) — IC50 (BT-333 glioblastoma; MTT; 72 h): 0.013 ± 0.02 µM
C=CC(=O)N1CCCC(n2c(=O)c3ncccc3n(Cc3ccc(Oc4ccccc4)cc3)c2=O)C1 (centres unmarked) — IC50 (primary ALL cells; cell viability; 72 h, sensitive samples, MSC co-culture): 0.3 to 4.6 µM
CCn1cc[n+](CC)c1 — IC50 (RC-124 kidney epithelial; cell proliferation, crystal violet staining; 96 h): > 100 µM
CC1CC(=O)NN=C1c1ccc(NC(=O)N2Cc3ccncc3C2)cc1 (centres unmarked) — IC50 (A549-C4.4a; cell viability, CellTiter-Glo): 0.134 µM
S=c1n(-c2ccccc2)c2c3ccccc3nc3[n+]2[n]1[Ir-3]12([S]3)([c]3ccccc3-c3cccc[n+]31)[c]1ccccc1-c1cccc[n+]12 — IC50 (MRC9; cell viability, MTT; dark): > 50 µM
Cc1ccc(S(=O)(=O)c2c(-c3ccccc3)c3c(C)c4ccc(C)cc4n3c3ccccc23)cc1 — IC50 (LS174T; cell growth or viability, MTT; 72 h): > 100 µM
NC(=O)c1cccnc1.O=c1[nH]cc(F)c(=O)[nH]1.O=c1[nH]cc(F)c(=O)[nH]1.O=c1[nH]cc(F)c(=O)[nH]1 — IC50 (JEG-3; cell growth or viability, MTT): 0.444 µM
C=CC(OC(C)=O)c1cc(OC)cc(OC)c1 (centres unmarked) — IC50 (EJ-28; MTT; 24 h): > 50 µM
CCCCCCCCC=CCCCCCCCC(=O)OCC1OC(n2ccc(N)nc2=O)C(F)(F)C1O (centres unmarked) — IC50 (THX; cell growth; added: dipyridamole 4 µg/mL): 0.0053 ± 0.0037 µM
CC(C)c1cccc(C(C)C)c1-n1ccn(-c2c(C(C)C)cccc2C(C)C)c1=[Se].[Cl][Ag] — IC50 (LoVo MDR; MTT; 72 h): 5.4 ± 1.2 µM
